Results pooled from the literature.
Every numbered part comes from another study and shows a few of its results, in no order.

Study 1 — technique: RNA Bind-n-Seq; molecule type: RNA; sample: in vitro; concentration: 200 nM; notes: whole 134-nt RNA, ends assumed; together with: 150 mM KCl; relative to: input library; direction: higher = stronger binding
Target: Fragile X messenger ribonucleoprotein 1, C-terminal low-complexity region (Fmr1, Mus musculus, UniProt P35922)
`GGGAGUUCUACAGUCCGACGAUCACCAUGCAGGUGGGCAGCUUUGGGAAGUGGGGCAAGGGGGGGAUAGGGAGGGGGGUAACACUUUGGGAACAGGUGGUCCCAGGUCGUUUCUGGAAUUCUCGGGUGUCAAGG` gave a log2 enrichment of 0.807.
The log2 enrichment of `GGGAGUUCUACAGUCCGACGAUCGCAGGAAGUAAAAACAAAUGGAAAUGCGUCGGAUAGUGGCAGGGGUGGGGGUUGCUAAGGAAAGGGUGGGAUGGGAGUGGGUAAAGAGUUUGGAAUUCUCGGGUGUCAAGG` is reported as -0.307.
For `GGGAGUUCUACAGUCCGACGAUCCAAGUCCUGUGCUACACAUCGUAUGUACCGAAUCGGGGUUUGGGGUGGGGUGGGGAAAGUAUUAUGUUACGCCGUUCGGAUCUGCACUUCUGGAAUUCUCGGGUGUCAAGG`, the log2 enrichment was 1.28.
The log2 enrichment of `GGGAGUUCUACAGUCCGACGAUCUGGCCCUGGUGGCAUGCGGGUAGGAAGAGGUGGCCUCAUGGAUCGUGGUGGUCCCGGUGGAAUGUUCAGAGGUGGCCGUGGUGGAGACAGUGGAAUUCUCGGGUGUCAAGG` is reported as 0.0152.
For `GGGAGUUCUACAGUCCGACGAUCGCAGGAAGUAAUAACAAAUGGAAAUGCUUCGGAUAGUGGCAGGGGUGGGGGUUGCUAAGGAAAGGGUGGGAUGGGAGUGGGUAAAGAGUUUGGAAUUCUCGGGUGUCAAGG`, the log2 enrichment was 0.42.
With `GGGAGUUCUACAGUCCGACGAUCACCAUGCAGGUGAAAAUCUUUGGGAAGUGGGGCAAGGGGGGGAUAGGGAGGGGGGUAACACUUUGGGAACAGGUGGUCCCAGGUCGUUUCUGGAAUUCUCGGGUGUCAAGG` the log2 enrichment was 0.554.
`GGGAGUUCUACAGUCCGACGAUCAGUCCUGUGCUACACAUCGUAUGUACCGAAUCGGAAAAAGGGGAAAAAGGGAAAAAGGAAAGUAUUAUGUUACGCCGUUCGGAUCUGCACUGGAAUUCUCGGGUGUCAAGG` has a log2 enrichment of -0.441.
For `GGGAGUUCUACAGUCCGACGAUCUCAAGUCCUGUGCUACACAUCGUAUGUACCGAAUCGGGGCGGGGCGGGGCGGGGAAAGUAUUAUGUUACGCCGUUCGGAUCUGCACUUCCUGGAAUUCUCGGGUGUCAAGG`, the log2 enrichment was 1.42.

Study 2 — technique: protein binding microarray; molecule type: double-stranded DNA, one strand shown; sample: in vitro; concentration: not given; relative to: not given; direction: higher = stronger binding
Target: Histone acetyltransferase KAT6A, both winged helices, GST fusion (KAT6A, Homo sapiens, UniProt Q92794, residues 1-181)
Notes: 8-mer, flanks averaged, mean of 2 arrays, mostly near background
Residues (chain): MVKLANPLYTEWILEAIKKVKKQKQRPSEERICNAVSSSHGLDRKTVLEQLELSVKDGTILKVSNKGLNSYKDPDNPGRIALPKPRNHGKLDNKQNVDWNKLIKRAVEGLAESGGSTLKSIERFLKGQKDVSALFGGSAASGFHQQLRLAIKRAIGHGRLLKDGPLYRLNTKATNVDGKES
`ACGCTGTC` gave an E-score of 0.0713.
`AGTGCAAA` gave an E-score of -0.0937.
`GCTTTTGA` has an E-score of 0.0602.
`CCCCACTA` has an E-score of -0.222.
`CTCATCTC` has an E-score of -0.0434.
With `TGTCTGAA` the E-score was 0.00242.
For `ATCGGCCA`, the E-score was 0.137.
With `ACGTAATC` the E-score was -0.00045.
The E-score of `ATAGTAAC` is reported as -0.0598.
`GTGCCCTA` has an E-score of -0.0987.

Study 3 — technique: RNA Bind-n-Seq; molecule type: RNA; sample: in vitro; concentration: not given; relative to: input RNA pool; direction: higher = stronger binding
Target: RING finger protein unkempt homolog, zinc fingers 1-6, GST-SBP tag (UNK, Homo sapiens, UniProt Q9C0B0, residues 30-357)
UniProt Q9C0B0, sequence (30-357, looked up): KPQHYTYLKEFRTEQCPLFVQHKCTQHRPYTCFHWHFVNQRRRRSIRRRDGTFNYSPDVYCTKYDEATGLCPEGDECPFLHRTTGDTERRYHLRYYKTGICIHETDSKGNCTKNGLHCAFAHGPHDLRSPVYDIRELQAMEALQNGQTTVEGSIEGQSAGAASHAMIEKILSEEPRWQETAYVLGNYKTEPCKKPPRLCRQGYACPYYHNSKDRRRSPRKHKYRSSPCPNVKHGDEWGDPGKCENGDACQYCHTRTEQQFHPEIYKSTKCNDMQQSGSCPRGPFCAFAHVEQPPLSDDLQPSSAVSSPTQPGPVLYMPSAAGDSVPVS
Notes: RNA with constant flanks, human and mouse sites, ends assumed
With `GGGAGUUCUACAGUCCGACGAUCAUAGCCCUUCCAAUGAAAGAGCAGCUUUCAACUACAUACUUUACAUCUGGAGAGACCUUUGGUCAGGAAAAACCUGCAUCUCAGUUACCAUCUGGCAGUCCUUCUGUUUCCUCUCUUCCACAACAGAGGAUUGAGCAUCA` the bound/input enrichment was 0.298 ratio.
The bound/input enrichment of `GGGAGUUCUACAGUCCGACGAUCCUUAGUCCUGAUGCUGUCUAUGUACUGUGCUACUCUUUGAUUCUACUUUCCAUUGACCUCACUAGCCCUCAUGUGAAGAAUAAAAUGUCAAAAAGGGAAUUUAUUCGAAAUACCCGUCGCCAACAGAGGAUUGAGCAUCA` is reported as 0.422 ratio.
The bound/input enrichment of `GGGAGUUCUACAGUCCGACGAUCCUACCUAACCCUUUCUUAUUUGUAUUUGUUUUAGUAUUGUGAAGUUGUGUUAAAUAGUACUAGCUAGAAAUACAAAUUUCUGGUUAUCAUUUCUCUUCCCUGUGGCACUUGACAUUUUAACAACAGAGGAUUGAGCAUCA` is reported as 1.2 ratio.
`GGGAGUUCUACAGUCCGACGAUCAAGUCCAUUACUAUCCUCUCUACCCCUGAAGGCACCUCUGCAGCUUGUAAGUCUAUUCUGGAGAUUAUGCAUAAGGAAGCUCAAGAUAUAAAAUUCACAGAGGAGAUUCCCUUGAAGAUCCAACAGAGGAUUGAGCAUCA` gave a bound/input enrichment of 0.176 ratio.
For `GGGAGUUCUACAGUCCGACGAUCCAGUCCUGCGUUUCCUCCCUAAAUUCUAUUUUGUUAUUUGGUUUUCUUUACUCUGGUUUUUAGUAACAGGAUCACGUAUUAAAAUUUGCUGUUAAUUAAAGUUUACCUUUUGAUUUUACACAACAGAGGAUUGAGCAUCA`, the bound/input enrichment was 0.442 ratio.
The bound/input enrichment of `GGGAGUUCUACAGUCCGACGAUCACGCGGUUUCUGGUGCAGAACGCGGAGCGGCCUGGCGCCUCCCUGGGCCCGGGGGCUCUGCUGCGGGCCGAGUUCCACCAGCACACGCACCAGCACACACACCAGCACACACACCAGCACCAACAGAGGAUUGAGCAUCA` is reported as 0.354 ratio.

Further values, each from its own experiment
With `PhoQ, residues 284 288 289 292 302 303 MLMVEA` the fold induction was 19.2 (PhoP, residues 12 14 15 18 19 LQHIR (Escherichia coli, UniProt P23836); Sort-seq, measured: YFP reporter; E. coli; PhoQ-PhoP variant library, together with: 10 µM Mg2+; relative to: high Mg2+ state, higher = stronger signaling).

Some of these lines once more (study 2):
`AGTGCAAA` gave an E-score of -0.0937.
`GCTTTTGA` has an E-score of 0.0602.
The E-score of `ATAGTAAC` is reported as -0.0598.
